Measured values collected from several papers.
Lines come from different studies, so protocols differ. Values joined by “and” are separate records of one study, mostly repeats; a detail may differ. pEC50, pIC50: −log10 of the molar value.

Compound | cell line | assay | system | conditions | how to read | measurement | value
COC(=O)c1cc(NC2=NC(=O)C(=Cc3ccc(C)cc3)S2)ccc1OC(C)=O | MCF7 | GC-MS, item: Oleic acid |  | 1 µM | relative to: DMSO | metabolite level | 0.45 fold change
CCC1NC2CC3(C(=O)N(OC)c4cc(OC)ccc43)C3OCC2C1C3O (centres unmarked) | HT-22 | CCK-8 |  | up to 100 µM, 24 h |  | viability | no effect
CSC(=S)N/N=C(\C)c1ccc(Nc2nnc(-c3ccc(Cl)cc3)c3ccccc23)cc1 | HepG2 | cell growth or viability, MTT |  | 0.156 µM, 24 h |  | viability | 51.3%
C=CC(=O)N1CC2C(=O)N(CCN(C)C)c3c(c4cc(Cl)c(-c5c(O)cccc5F)nc4n(-c4c(C)ccnc4C(C)C)c3=O)N2CC1C (centres unmarked) | NCI-H358 | Western blot |  | 1 nM, 4 h |  | p-ERK/ERK ratio | decreased
CCN(CC)CC(=O)Nc1cccc(-n2cc(-c3ccc4ccc(-c5cn(-c6cccc(NC(=O)CN(CC)CC)c6)nn5)cc4c3)nn2)c1 | RCC4 | PCR angiogenesis array, item: IGF1 |  | 5 x IC50, 4 h, normoxia | relative to: untreated | fold regulation | -1.39
O=C(NCc1cc(F)cc(F)c1)[C@@]1(O)CCN(c2ccc3[nH]ccc3c2)C1=O | PDX-derived kidney tumour cells | colony formation, inhibitor, soft agar clonogenic |  | 8-13 days |  | maximal inhibition | 53%
CNS(=O)(=O)Nc1nccc(Cc2c(C)c3ccc(Oc4ncccc4F)cc3oc2=O)c1F | HSC-2 | cell viability |  | 7 days |  | pIC50 | 8.13
CC(C)c1ccc(N(C)c2ccc3c(c2)OCC[C@H]3CNc2cnccc2C(=O)O)cc1 | NCI-H1838 | cell growth or viability, ATP luminescence |  | 7 days |  | pIC50 | ≤ 5.00
Cc1nc(Nc2ncc(C(=O)Nc3c(C)cccc3Cl)s2)cc(N2CCN(C(=O)CN)CC2)n1 | KU812 | flow cytometry |  | concentration not given, 1 h |  | early apoptotic cells | 8.81% and 6.36% and 6.81%
Cc1ncsc1-c1ccc(C(C)NC(=O)C2CC(O)CN2C(=O)C(NC(=O)CCCCCCCCCCN2CCCC(Nc3ncc(Cl)c(Nc4ccccc4S(=O)(=O)C(C)C)n3)C2)C(C)(C)C)cc1 (centres unmarked) | 22Rv1 | RNA-seq, item: TMEM86A mRNA |  | concentration not given | relative to: DMSO | log2 fold change | -2.44
C1=[N+]2CCCC[N+]3=Cc4ccc5[n]4[Au-]23[n]2c1ccc2-c1nc2ccccc2nc1-5.F[P-](F)(F)(F)(F)F | OVCAR-4 | NCI60 five-dose screen |  |  |  | TGI | 4.46 -log M
Cn1ncc(-c2ccc3c(=O)[nH]nc(CN)c3c2)c1-c1c(F)c(Cl)cc(OC2CC2)c1C#N | NOMO-1 | cell viability, inhibitor, CellTiter-Glo |  | 120 h, baseline-subtracted |  | pIC50 | 7.52
O=C1CCP(=O)(c2ccccc2)CC1 | SW-620 | MTT |  | 72 h | relative to: IC50 HaCaT over IC50 SW-620 | selectivity index | 1
[Cl-].[Cl-].[Ru+2].c1cc(-c2ccc3cccnc3n2)nc(-c2ccc3cccnc3n2)c1.c1ccc2cc3nc4c5cccnc5c5ncccc5c4nc3cc2c1 | B16-F10 | cytotoxicity, resazurin |  | dark |  | pEC50 | 4.19
CN1CCCNC(=O)c2cccc(c2)C(=O)NCCCN(C)CCCNc2cccc3c2C(=O)c2cccc(c2C3=O)NCCC1 | SAS | RNA-Seq, item: TMEM192 mRNA |  | 1 µM, 6 h | relative to: untreated cells | log2 fold change | -0.769
CN(C)CCN1CCN(c2ccc3nc(-c4ccc5nc(-c6ccc(C(F)(F)F)cc6)[nH]c5c4)[nH]c3c2)CC1 | NCI/ADR-RES | cell growth, NCI-60 SRB |  | 10 µM, 48 h |  | growth percent | 97.9%
NC(=O)c1ccc(-c2ccccc2Cl)c2c3c([nH]c12)CC[C@@H](N)C3 | HuCCT-1 | cell growth or viability |  |  |  | pIC50 | 8.21
CC(C)(C)c1cc(-c2ccc3cccnc3n2)nc(-c2ccc3cccnc3n2)c1.[Cl-].[Cl-].[Ru+2].c1cnc2c(c1)ccc1cccnc12 | B16-F10 | resazurin |  | together with: light 633 nm, 100 J/cm2 | relative to: dark EC50 over light EC50 | phototoxicity index | 1
CCCCCCCCCCCC(=O)N[C@H](CO)C[C@@H](O)c1ccccc1 | HeLa | CERT activity, HPLC-MS/MS lipidomics, item: ceramide 22 |  | 1 µM, 24 h, not cell-number normalised |  | ceramide level | 2490 pmol/sample and 2970 pmol/sample and 2480 pmol/sample
CC(C)(C)c1cc(-c2ccc3cc4ccccc4nc3n2)nc(-c2ccc3cc4ccccc4nc3n2)c1.[Cl-].[Cl-].[Ru+2].c1ccc2cc3nc4c5cccnc5c5ncccc5c4nc3cc2c1 | B16-F10 | resazurin |  | together with: light 733 nm, 100 J/cm2 | relative to: dark EC50 over light EC50 | phototoxicity index | 1
CCOc1cncc(-c2ccc(NC(=O)C3(c4ccnc(NS(=O)(=O)C5CC5)n4)CCOCC3)nc2)n1 | renal cancer | cell viability, CellTiter-Glo | DMSO 0.1% | 72 h, line code 2516 |  | pIC50 | 6.38
O=C(N1CCCC1)n1cc(-c2ccc(-c3ccccc3)cc2)nn1 | mouse T cells | N-terminal labelling proteomics, item: Arhgef2 N-terminal peptide |  | 0.001 µM, 6 h | relative to: DMSO | SILAC ratio per peptide | 1.26 and 1.18 and 1.01
Cn1ncc2cc(-c3cncc(Cl)c3N3CCC4(CCNC4=O)CC3)ccc21 | LS174T | gene expression, microarray, item: CXCL8 mRNA |  | concentration not given, 4 h | relative to: untreated cells | log2 fold change | -4.69
O=C(C[Se]C(=O)C12CC3CC(CC(C3)C1)C2)Nc1cccc(C(F)(F)F)c1 | NCI60 breast subpanel | NCI60 five-dose screen |  |  |  | GI50 | 6.1 µM
C=CC(=O)N1CCCC(n2c(=O)c3ncccc3n(Cc3ccc(Oc4ccccc4)cc3)c2=O)C1 (centres unmarked) | Rec1 | item: FST |  | concentration not given | relative to: untreated | log2 fold change | 0.952
COc1ccccc1-c1ccncc1C(=O)Nc1nnc(OCc2ccc(Cl)cc2)s1 | MDA-MB-231 |  |  | 3 µM, single replicate |  | colony count | 23 and 32 and 35 and 21

Repeated from above:
Compound | cell line | assay | system | conditions | how to read | measurement | value
NC(=O)c1ccc(-c2ccccc2Cl)c2c3c([nH]c12)CC[C@@H](N)C3 | HuCCT-1 | cell growth or viability |  |  |  | pIC50 | 8.21
CC(C)(C)c1cc(-c2ccc3cc4ccccc4nc3n2)nc(-c2ccc3cc4ccccc4nc3n2)c1.[Cl-].[Cl-].[Ru+2].c1ccc2cc3nc4c5cccnc5c5ncccc5c4nc3cc2c1 | B16-F10 | resazurin |  | together with: light 733 nm, 100 J/cm2 | relative to: dark EC50 over light EC50 | phototoxicity index | 1
Cc1ncsc1-c1ccc(C(C)NC(=O)C2CC(O)CN2C(=O)C(NC(=O)CCCCCCCCCCN2CCCC(Nc3ncc(Cl)c(Nc4ccccc4S(=O)(=O)C(C)C)n3)C2)C(C)(C)C)cc1 (centres unmarked) | 22Rv1 | RNA-seq, item: TMEM86A mRNA |  | concentration not given | relative to: DMSO | log2 fold change | -2.44
